Measurements from different studies.
“And” joins repeats or separate records; there may be more than shown. ± marks the error that the study gave.
NAA80: N-alpha-acetyltransferase 80 (NAA80, Homo sapiens, UniProt Q93015)
UniProt Q93015, sequence (whole entry, looked up): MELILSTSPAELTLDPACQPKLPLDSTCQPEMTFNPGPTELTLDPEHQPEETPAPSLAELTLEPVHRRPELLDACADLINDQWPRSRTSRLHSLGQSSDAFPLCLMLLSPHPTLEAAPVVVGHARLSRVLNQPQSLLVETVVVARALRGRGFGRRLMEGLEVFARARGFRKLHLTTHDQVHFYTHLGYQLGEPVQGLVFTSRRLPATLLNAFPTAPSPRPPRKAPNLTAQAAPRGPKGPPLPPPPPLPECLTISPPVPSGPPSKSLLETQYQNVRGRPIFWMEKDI
WD repeat-containing protein 91 WD40 domain, residues 392–747: WD repeat-containing protein 91, WD40 domain, residues 392–747 (Homo sapiens, UniProt A4D1P6)
UniProt A4D1P6, sequence (whole entry, looked up): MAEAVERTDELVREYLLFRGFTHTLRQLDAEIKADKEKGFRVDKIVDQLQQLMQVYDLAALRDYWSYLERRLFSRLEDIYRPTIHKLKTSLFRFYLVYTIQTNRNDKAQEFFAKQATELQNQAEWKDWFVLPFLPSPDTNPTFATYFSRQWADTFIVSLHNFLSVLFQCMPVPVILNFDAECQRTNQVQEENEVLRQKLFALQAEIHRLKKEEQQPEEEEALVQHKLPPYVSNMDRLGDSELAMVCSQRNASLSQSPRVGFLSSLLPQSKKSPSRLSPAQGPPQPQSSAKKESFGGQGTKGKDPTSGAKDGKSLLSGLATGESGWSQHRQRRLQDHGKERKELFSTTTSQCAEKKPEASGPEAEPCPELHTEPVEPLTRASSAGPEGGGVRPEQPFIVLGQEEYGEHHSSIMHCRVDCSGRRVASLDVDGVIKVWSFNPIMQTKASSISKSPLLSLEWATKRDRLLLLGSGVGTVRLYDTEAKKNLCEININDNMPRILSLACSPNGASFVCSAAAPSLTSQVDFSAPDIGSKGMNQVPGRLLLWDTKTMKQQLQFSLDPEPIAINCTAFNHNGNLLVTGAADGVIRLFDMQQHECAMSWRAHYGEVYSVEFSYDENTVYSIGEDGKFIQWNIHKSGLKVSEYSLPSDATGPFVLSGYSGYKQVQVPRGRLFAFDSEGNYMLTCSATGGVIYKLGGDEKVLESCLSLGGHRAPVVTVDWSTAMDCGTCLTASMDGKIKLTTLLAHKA
Genome polyprotein NS3 helicase domain: Genome polyprotein, NS3 helicase domain (Hepatitis C virus genotype 1b, UniProt Q9WMX2)
WD repeat-containing protein 91: WD repeat-containing protein 91 (Homo sapiens, UniProt A4D1P6)
T1: riboswitch RNA yjdF aptamer, P2a helix from Ruminococcus (Bacillus subtilis); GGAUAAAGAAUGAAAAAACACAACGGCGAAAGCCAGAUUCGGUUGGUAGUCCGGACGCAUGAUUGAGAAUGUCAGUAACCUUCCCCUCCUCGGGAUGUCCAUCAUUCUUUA
UniProt Q16774, sequence (whole entry, unmodified, looked up): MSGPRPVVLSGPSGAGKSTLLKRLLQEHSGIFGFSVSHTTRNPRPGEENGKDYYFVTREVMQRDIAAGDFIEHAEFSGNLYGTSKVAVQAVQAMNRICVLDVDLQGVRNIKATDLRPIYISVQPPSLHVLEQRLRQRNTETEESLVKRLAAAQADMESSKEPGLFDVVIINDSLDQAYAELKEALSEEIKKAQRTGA
UniProt P51575, sequence (whole entry, unmodified, looked up): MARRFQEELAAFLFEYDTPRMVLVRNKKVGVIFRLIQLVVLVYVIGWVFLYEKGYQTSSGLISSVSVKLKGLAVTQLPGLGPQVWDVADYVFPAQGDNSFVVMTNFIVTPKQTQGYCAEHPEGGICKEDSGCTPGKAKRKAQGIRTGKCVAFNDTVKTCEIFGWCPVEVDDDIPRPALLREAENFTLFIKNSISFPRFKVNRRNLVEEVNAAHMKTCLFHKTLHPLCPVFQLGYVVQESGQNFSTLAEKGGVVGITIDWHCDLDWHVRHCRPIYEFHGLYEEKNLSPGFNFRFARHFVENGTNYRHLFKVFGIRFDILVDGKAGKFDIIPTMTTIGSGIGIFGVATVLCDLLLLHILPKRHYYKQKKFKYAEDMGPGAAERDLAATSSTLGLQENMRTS
UniProt Q92570, sequence (whole entry, looked up): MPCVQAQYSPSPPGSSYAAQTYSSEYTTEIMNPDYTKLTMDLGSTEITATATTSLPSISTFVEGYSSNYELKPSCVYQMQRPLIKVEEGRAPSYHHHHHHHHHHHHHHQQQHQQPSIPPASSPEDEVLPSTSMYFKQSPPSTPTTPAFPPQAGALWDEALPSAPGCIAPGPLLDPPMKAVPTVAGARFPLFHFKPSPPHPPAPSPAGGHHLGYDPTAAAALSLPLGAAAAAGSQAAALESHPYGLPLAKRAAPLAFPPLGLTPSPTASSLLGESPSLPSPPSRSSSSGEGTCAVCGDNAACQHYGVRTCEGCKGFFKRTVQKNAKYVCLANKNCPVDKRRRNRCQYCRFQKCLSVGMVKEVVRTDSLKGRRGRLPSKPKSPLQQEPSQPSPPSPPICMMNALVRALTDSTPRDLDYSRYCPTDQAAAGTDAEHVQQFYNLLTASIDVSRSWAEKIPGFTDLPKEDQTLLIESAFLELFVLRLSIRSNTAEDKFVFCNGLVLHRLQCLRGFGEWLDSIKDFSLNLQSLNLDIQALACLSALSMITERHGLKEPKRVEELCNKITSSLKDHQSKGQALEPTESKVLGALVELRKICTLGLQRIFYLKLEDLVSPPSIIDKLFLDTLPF
UniProt P11388, sequence (whole entry, looked up): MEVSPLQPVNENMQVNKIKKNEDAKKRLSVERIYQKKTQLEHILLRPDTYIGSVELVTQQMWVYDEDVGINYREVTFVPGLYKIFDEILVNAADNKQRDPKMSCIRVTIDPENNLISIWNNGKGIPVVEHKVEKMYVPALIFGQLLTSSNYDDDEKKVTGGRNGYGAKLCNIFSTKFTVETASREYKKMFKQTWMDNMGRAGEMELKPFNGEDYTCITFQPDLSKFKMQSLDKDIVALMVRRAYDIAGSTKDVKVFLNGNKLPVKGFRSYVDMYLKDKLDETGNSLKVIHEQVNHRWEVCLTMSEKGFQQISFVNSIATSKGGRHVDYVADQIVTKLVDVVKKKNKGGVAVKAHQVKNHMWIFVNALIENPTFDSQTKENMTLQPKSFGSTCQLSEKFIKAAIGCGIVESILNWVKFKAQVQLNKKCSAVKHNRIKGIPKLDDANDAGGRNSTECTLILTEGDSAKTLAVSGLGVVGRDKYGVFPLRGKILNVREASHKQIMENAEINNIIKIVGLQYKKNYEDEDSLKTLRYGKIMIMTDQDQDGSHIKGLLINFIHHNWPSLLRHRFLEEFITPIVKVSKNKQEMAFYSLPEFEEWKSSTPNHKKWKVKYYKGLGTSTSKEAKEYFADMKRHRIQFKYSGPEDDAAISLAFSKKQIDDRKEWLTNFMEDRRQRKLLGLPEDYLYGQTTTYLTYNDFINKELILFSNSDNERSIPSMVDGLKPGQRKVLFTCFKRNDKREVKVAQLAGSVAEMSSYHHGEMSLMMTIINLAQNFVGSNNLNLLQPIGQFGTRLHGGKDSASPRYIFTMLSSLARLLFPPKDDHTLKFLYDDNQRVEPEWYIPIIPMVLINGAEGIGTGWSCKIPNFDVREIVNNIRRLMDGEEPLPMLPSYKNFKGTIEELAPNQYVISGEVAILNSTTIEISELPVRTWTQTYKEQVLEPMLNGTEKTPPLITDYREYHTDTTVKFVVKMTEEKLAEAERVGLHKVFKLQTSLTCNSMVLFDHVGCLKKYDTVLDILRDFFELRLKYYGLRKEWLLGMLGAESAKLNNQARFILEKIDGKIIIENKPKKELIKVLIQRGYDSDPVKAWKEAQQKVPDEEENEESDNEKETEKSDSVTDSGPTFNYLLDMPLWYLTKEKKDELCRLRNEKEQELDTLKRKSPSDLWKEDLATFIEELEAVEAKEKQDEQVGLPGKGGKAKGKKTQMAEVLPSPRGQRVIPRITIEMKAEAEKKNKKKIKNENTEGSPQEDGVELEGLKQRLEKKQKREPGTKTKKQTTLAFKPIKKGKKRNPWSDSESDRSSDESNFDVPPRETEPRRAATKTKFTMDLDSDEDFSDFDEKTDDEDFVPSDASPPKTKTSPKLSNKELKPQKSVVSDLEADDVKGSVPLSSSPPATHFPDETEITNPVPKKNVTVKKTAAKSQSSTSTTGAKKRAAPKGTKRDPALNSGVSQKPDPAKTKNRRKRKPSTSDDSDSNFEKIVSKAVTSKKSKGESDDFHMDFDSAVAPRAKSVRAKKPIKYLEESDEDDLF
UniProt Q14683, sequence (whole entry, looked up): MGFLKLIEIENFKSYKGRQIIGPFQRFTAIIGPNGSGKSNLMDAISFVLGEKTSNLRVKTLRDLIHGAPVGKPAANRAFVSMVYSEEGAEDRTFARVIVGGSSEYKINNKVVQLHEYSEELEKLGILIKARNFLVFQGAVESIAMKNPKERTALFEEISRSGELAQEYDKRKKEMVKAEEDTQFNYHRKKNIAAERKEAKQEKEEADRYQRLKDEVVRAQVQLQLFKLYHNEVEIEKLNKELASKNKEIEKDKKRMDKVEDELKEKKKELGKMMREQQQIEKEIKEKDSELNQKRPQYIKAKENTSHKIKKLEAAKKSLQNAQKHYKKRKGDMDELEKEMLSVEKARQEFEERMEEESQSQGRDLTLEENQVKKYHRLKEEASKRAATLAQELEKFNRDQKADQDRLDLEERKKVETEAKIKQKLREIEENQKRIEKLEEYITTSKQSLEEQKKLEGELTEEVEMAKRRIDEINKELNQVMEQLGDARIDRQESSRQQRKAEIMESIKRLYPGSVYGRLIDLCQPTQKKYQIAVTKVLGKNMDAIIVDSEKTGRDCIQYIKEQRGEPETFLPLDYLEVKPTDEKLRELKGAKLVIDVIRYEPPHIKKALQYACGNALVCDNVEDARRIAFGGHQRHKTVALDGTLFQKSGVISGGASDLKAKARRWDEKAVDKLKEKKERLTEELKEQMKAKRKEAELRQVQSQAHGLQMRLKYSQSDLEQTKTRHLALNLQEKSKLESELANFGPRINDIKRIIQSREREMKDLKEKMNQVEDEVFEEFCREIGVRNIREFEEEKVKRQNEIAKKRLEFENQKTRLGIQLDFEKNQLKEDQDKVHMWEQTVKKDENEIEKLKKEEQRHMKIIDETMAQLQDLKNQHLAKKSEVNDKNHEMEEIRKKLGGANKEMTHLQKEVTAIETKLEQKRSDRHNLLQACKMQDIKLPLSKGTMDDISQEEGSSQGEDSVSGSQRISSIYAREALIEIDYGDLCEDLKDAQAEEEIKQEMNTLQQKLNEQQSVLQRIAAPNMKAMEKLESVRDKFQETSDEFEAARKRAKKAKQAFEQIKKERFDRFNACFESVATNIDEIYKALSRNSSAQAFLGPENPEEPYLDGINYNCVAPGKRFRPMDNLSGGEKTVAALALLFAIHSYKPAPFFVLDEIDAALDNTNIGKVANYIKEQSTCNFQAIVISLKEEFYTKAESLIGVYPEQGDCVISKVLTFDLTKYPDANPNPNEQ

N[C@@H](Cc1c[nH]c2ccccc12)C(=O)O
ΔG (Transcription attenuation protein MtrB (mtrB, Geobacillus stearothermophilus, UniProt Q9X6J6); isothermal titration calorimetry; 25 °C, one-site model): -9.16 ± 0.05 kcal/mol

Nc1nc2c(ncn2[C@@H]2O[C@H](COP(=O)(O)O)[C@@H](O)[C@H]2O)c(=O)[nH]1
reaction rate (GUK1 (Homo sapiens, UniProt Q16774, R148A); enzyme activity, NADH-coupled; 250 µM): 0.0552 s⁻¹ and 0.359 s⁻¹ and 0.471 s⁻¹

NCCCCN=C(N)N
product formation (NAA80; substrate, DTNB; 2 mM, 30 min, 37 °C, together with: acetyl-CoA 500 µM): -2.45 µM

O=C(c1cc2cccn2cn1)N1CCN(C(=O)c2ccoc2)C(c2ccc(F)cc2)C1 (stereo not drawn)
SPR response (WD repeat-containing protein 91 WD40 domain, residues 392–747; binding, SPR single-concentration screen; 45 µM): -8.3 RU and -0.8 RU

C=CC(=O)N1CCC(COCC(=O)N2CCN(c3nc(-c4cnc(N)nc4C(F)F)nc(N4CCOC[C@@H]4C)n3)CC2)CC1
remaining binding (MERTK (Homo sapiens, UniProt Q12866); KINOMEscan; 1 µM): 80%

Cc1cc2nc3[nH]c(=O)[nH]c(=O)c3nc2cc1C
Kd (T1, riboswitch RNA yjdF aptamer, P2a helix from Ruminococcus (Bacillus subtilis); fluorescence titration; together with: 380 nM lumichrome): 0.04 µM

CC(C)(C=O)Cc1cc(C(C)(C)C)c(O)c(C(C)(C)C)c1
inhibition (Genome polyprotein NS3 helicase domain; DNA binding, inhibitor; hepatitis C virus; 100 µM, together with: Cy5-dT15 DNA): 0%

N[C@@H](CCC(=O)O)C(=O)O
product formation (NAA80; substrate, DTNB; 2 mM, 30 min, 37 °C, together with: acetyl-CoA 500 µM): 1.84 µM

Cc1nc(CSc2nc(SCc3ccc(C(C)C)cc3)nc(=O)[nH]2)cs1
decatenated DNA (TOP2A (Homo sapiens, UniProt P11388); decatenation; 125 µM, replicate 2): 0%

C=C1CN(S(=O)(=O)c2ccc(C)cc2)CCCN(Cc2ccccc2)CCCN(S(=O)(=O)c2ccc(C)cc2)C1
FLuc/RLuc ratio (Protein transport protein Sec61 subunit alpha isoform 1 (Homo sapiens, UniProt P61619); item: control signal peptide-FLuc reporter; HEK293; 0.0014 mM, 6 h): 1.1

Nc1ncnc2c1ncn2[C@@H]1O[C@H](COP(=O)(O)CP(=O)(O)OP(=O)(O)O)[C@@H](O)[C@H]1O
specific binding (P2X purinoceptor 1 (P2RX1, Homo sapiens, UniProt P51575, K136W); saturation binding; HEK293; 79 nM): 4360 CCPM and 2630 CCPM

Clc1ccc(C(c2c[nH]c3ccccc23)c2c[nH]c3ccccc23)cc1
activation (Nuclear receptor subfamily 4 group A member 3, ligand-binding domain (Homo sapiens, UniProt Q92570); reporter gene, Gal4 hybrid reporter; 10 µM; relative to: vehicle): 1.1 fold

Nc1ncnc2c1c(-c1ccc(Oc3ccccc3)cc1)cn2C1CCCC1
inhibition (Genome polyprotein NS3 helicase domain; DNA binding, inhibitor; hepatitis C virus; 100 µM, together with: Cy5-dT15 DNA): 2%

O=C(NC1CCCS(=O)(=O)c2ccccc21)c1ccc2nc(O)cnc2c1 (stereo not drawn)
SPR response (WD repeat-containing protein 91; binding, SPR steady state; 0.4688 µM): 3.93 RU

O=C(O)CCCCCCCC(=O)O
inhibition (Genome polyprotein NS3 helicase domain; DNA binding, inhibitor; hepatitis C virus; 100 µM, together with: Cy5-dT15 DNA): 0%

Nc1ncnc2c1ncn2[C@@H]1O[C@H](C[C@@H](N)CC[C@H](N)C(=O)O)[C@@H](O)[C@H]1O
ΔH of binding (O-methyltransferase (Sorghum bicolor, UniProt A0A1B6PFV1); isothermal titration calorimetry; concentration not given, apo protein): -12.7 ± 0.284 kcal/mol

Nc1ncnc2c1ncn2[C@@H]1O[C@H](CO)[C@@H](O)[C@H]1O
Km (Chimera-2 enzyme (Aplysia californica); deamination, substrate, spectrophotometric; Tris-HCl buffer with NaCl): 39 ± 5 µM

N#CC1CCN(C(=O)c2ccc(CSc3nc4ccccc4s3)cc2)CC1
SPR response (WD repeat-containing protein 91 WD40 domain, residues 392–747; binding, SPR single-concentration screen; 45 µM): 7.5 RU and 13.5 RU

COc1ccccc1-c1n[nH]c2nc(N[C@H]3CC[C@H](NS(=O)(=O)CCCOCCOCCNC(=O)OC(C)(C)C)CC3)ncc12
log2 SILAC ratio heavy/light (cdc2-related kinase 12 (Leishmania donovani, UniProt A0A3S7WQK2); resin binding competition; promastigote lysate; 10 µM; relative to: DMSO): 4.4

COc1ccc(-c2cncc(C(=O)N[C@@H]3CCc4c(C#N)cccc43)c2)c(C)c1
binding (WD repeat-containing protein 91, residues 392–747 (Homo sapiens, UniProt A4D1P6); SPR dose-response titration; concentration not given, 1:1 binding model): 73%

CC[C@H](C)[C@H](NC(=O)[C@H](C)NC(=O)[C@H](CCSC)NC(=O)[C@H](C)NC(=O)[C@H](C)NC(=O)[C@H](Cc1ccc(O)cc1)NC(=O)[C@@H](NC(=O)[C@H](CCCCN)NC(=O)CNC(=O)[C@@H](NC(=O)[C@@H](NC(=O)[C@H](CCSC)NC(=O)[C@H](Cc1c[nH]cn1)NC(=O)CN)[C@@H](C)O)C(C)C)[C@@H](C)CC)C(=O)N[C@@H](CCSC)C(=O)N[C@@H](CCC(=O)O)C(=O)N[C@@H](Cc1ccc(O)cc1)C(=O)N[C@@H](Cc1ccc(O)cc1)C(=O)N[C@@H](CCCNC(=N)N)C(=O)N[C@@H](CCC(N)=O)C(=O)N[C@@H](CO)C(=O)N[C@@H](CCCCN)C(=O)N[C@@H](C)C(=O)N[C@@H](CCCCN)C(=O)N[C@@H](CCCCN)C(=O)N[C@@H](CC(C)C)C(=O)N[C@@H](CCC(N)=O)C(=O)N[C@@H](C)C(=O)N[C@@H](CCSC)C(=O)N[C@@H](CCCNC(=N)N)C(=O)O
ΔΔG (Calmodulin-1, Ca2+-bound N-lobe (CALM1, Homo sapiens, UniProt P0DP23); binding, isothermal titration calorimetry; N-lobe, CaV2.1 IQ domain, unit not given, together with: Ca2+; relative to: wild-type IQ domain): -1.02

CCOc1cc(-c2nncn2C)ccc1Nc1ncc2cc(C)nc(NCC(C)(C)C)c2n1
displacement (WEE1 (Homo sapiens, UniProt P30291); binding, LanthaScreen binding; 1 µM): 36%

COC(=O)[C@H]1[C@H]2C[C@H]3c4[nH]c5ccccc5c4CCN3C[C@H]2CC[C@@H]1O
inhibition (Genome polyprotein NS3 helicase domain; DNA binding, inhibitor; hepatitis C virus; 100 µM, together with: Cy5-dT15 DNA): 0%

CCS(=O)(=O)N1CC(CC#N)(n2cc(-c3ncnc4[nH]ccc34)cn2)C1
bimolecular quenching constant (ORM1 (Homo sapiens, UniProt P02763); fluorescence quenching; 298 K): 5.55e+12 ± 5.1e+11 M⁻¹ s⁻¹

O=C(O)[C@@H]1CN(C(=O)c2cc(-c3ccccc3)c[nH]2)C[C@H]1c1ccc(Cl)cc1
binding (WD repeat-containing protein 91 WD40 domain, residues 392–747; SPR; 45 µM): 30% and 42%

CN1C(=O)C(c2c(-c3ccc(Cl)cc3)[nH]c3c2c(=O)[nH]c(=O)n3C)c2ccccc21 (stereo not drawn)
SPR response (WD repeat-containing protein 91; binding, SPR steady state; 0.9375 µM): 9.99 RU

O=C(O)C1CCCNC1 (stereo not drawn)
normalised MST signal (SLC6A6 (Homo sapiens, UniProt P31641, Y138A); binding, microscale thermophoresis; 3.91 µM, room temperature, together with: 50 nM labelled protein; higher = more binding): 0.218

O=c1cc(-c2ccc(O)cc2)oc2cc(O)c([C@@H]3O[C@H](CO)[C@@H](O)[C@H](O)[C@H]3O)c(O)c12
selectivity ratio (Estrogen receptor (ESR1, Homo sapiens, UniProt P03372); array formation; PRL-HeLa; relative to: EC50 ERβ over EC50 ERα): 1.02

C=CC(=O)N1CCC(C(=O)NCC(=O)N2CCN(c3nc(-c4cnc(N)nc4C(F)F)nc(N4CCOCC4)n3)CC2)CC1
remaining binding (WNK1 (Homo sapiens, UniProt Q9H4A3); KINOMEscan; 1 µM): 99%

CC(=O)NCc1ccccc1N1CCN(C(=O)c2cc3cccn3cn2)CC1
binding (WD repeat-containing protein 91 WD40 domain, residues 392–747; SPR; 45 µM): -16% and -3%

O=O
apparent kcat (HIF1AN (Homo sapiens, UniProt Q9NWT6, E105A); enzyme activity, substrate, rates, initial, MALDI-TOF MS; varied, pH 7.00, 37.0 °C, E105A, together with: CTAD peptide 80 µM, 2-oxoglutarate 100 µM): 0.7 ± 0.05 s⁻¹

[O-][S+]1CCCCS1 (stereo not drawn)
alpha rate constant (SOD1 (Homo sapiens, UniProt P00441, G94A); one-compartment model; SOD1 G93A transgenic mice, whole blood; iv, 10 mg/kg): 0.0264 h⁻¹

Cn1c(=O)c2[nH]cnc2n(C)c1=O
activation (Glutamate receptor 2 (Homo sapiens, UniProt P42262); ion current, agonist, SyncroPatch patch clamp; HEK293; 30 µM): 2%

O=C(COP(=O)(O)O)[C@@H](O)[C@H](O)[C@H](O)COP(=O)(O)O
thermal stability ratio (Structural maintenance of chromosomes protein 1A (Homo sapiens, UniProt Q14683); thermal proteome profiling, item: SMC1A; HepG2 cell lysate; concentration not given, 57 over 37 °C, mean; relative to: compound over control): 0.632

O=C(O)[C@@H](O)[C@@H](O)[C@H](O)CO
delta Tm (Uncharacterized protein (Chromohalobacter israelensis, UniProt Q1QT90); binder, thermal shift): 3.6 °C

N[C@H]1CON=C1O
inhibition (Genome polyprotein NS3 helicase domain; DNA binding, inhibitor; hepatitis C virus; 100 µM, together with: Cy5-dT15 DNA): 0%

N#CC1CCN(C(=O)c2ccc(CNc3cccc4c3CCCC4)cc2)CC1
SPR response (WD repeat-containing protein 91 WD40 domain, residues 392–747; binding, SPR single-concentration screen; 45 µM): 21.2 RU and 11.7 RU

COc1ccc(CN(CCN(C)C)c2ccccn2)cc1
inhibition (Genome polyprotein NS3 helicase domain; DNA binding, inhibitor; hepatitis C virus; 100 µM, together with: Cy5-dT15 DNA): 3%

CC[C@H](C)[C@H](NC(=O)[C@H](CCC(=O)O)NC(=O)[C@H](CCC(=O)O)NC(=O)[C@@H]1CCCN1C(=O)[C@H](CC(=O)O)NC(=O)[C@H](C)NC(=O)[C@H](CCC(N)=O)NC(=O)[C@@H](NC(=O)[C@H](C)NC(=O)[C@@H](NC(=O)[C@H](CO)NC(=O)[C@@H](NC(=O)[C@H](CCCCN)NC(=O)[C@@H](N)Cc1ccc(O)cc1)[C@@H](C)O)C(C)C)[C@@H](C)O)C(=O)N[C@H](C(=O)N[C@H](C(=O)N[C@@H](CC(C)C)C(=O)N[C@@H](CC(=O)O)C(=O)N[C@@H](CC(=O)O)C(=O)N[C@@H](CC(=O)O)C(=O)N[C@@H](CC(=O)O)C(=O)O)C(C)C)[C@@H](C)CC
ΔG (Small ubiquitin-related modifier 2, N-terminally truncated (Homo sapiens, UniProt P61956, C48A); binding, ITC; pH 7.4, 298.15 K, N-terminally truncated protein): -8.6 ± 0.13 kcal/mol

Some of these lines once more:
Cn1c(=O)c2[nH]cnc2n(C)c1=O
activation (Glutamate receptor 2 (Homo sapiens, UniProt P42262); ion current, agonist, SyncroPatch patch clamp; HEK293; 30 µM): 2%

O=C(COP(=O)(O)O)[C@@H](O)[C@H](O)[C@H](O)COP(=O)(O)O
thermal stability ratio (Structural maintenance of chromosomes protein 1A (Homo sapiens, UniProt Q14683); thermal proteome profiling, item: SMC1A; HepG2 cell lysate; concentration not given, 57 over 37 °C, mean; relative to: compound over control): 0.632
